Published values from different studies.
Every numbered part comes from another study and shows a few of its results, in no order.

Block 1 — technique: protein-binding microarray; form: double-stranded DNA, one strand shown; matrix: in vitro; concentration: 2540 nM top; setting: 60-bp whole probe; added: salmon DNA 0.4 mg/ml; relative to: random background probes; reading: higher = stronger binding; constant ends, left off below: GCCTAGCAC … GTCTTGATTCGCTTGACGCTGCTG
Target: Interferon regulatory factor 3, full length, phosphomimetic (IRF3, Homo sapiens, UniProt Q14653, residues 1-427, S386D/S396D/S398D/S402D/T404D/S405D)
Residues (chain): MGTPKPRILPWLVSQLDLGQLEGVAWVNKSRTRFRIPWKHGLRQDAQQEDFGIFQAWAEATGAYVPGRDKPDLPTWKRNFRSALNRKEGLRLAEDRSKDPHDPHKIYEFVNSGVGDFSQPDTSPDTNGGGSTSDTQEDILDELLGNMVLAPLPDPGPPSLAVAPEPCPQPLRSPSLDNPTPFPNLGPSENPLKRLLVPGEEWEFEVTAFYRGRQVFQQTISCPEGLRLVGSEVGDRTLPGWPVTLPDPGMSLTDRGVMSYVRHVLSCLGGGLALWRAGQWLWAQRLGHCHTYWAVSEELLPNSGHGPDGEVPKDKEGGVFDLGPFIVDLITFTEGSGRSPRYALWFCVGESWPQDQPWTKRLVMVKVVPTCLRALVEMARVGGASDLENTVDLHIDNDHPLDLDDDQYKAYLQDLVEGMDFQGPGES
Oligonucleotide	fitted relative affinity
TTACGTTTCCTTATCCTTTAGTGCTAG	6.57 z-score
TTAGCTTTCCTTTTCCTTTAGTGCTAG	9.24 z-score
TACGGTTTCGACTATCGGGACGTGCTA	2.67 z-score
TTCGGTTTCCTTCTCCTTTAGTGCTAG	10.3 z-score
GACTGACTGGGTTTCGGGACGTGCTAG	1.23 z-score
CCTCGTCTCTATCAAAAATAGTGCTAG	0.622 z-score
TCAAGTTTTTATTTTCTACTGTGCTAG	1.99 z-score
GACCATTTCGGGTTTCGAGACGTGCTA	3.02 z-score
AGTTCTCTAGAAATTCCCACGGTGCTA	0.511 z-score
TTAGGACTGGGCTATCGGTTAGTGCTA	-0.931 z-score
TTAAAACTGAGTCTCGATTAGTGCTAG	-0.333 z-score
GACAAACTGGGGTATCGAGACGTGCTA	-0.375 z-score
GACGAACTGATTCTCGAGACGTGCTAG	0.253 z-score
TTAGGTTTCAGACTGGATTAGTGCTAG	2.32 z-score
TTAGATTTCATTCTCGATTAGTGCTAG	3.84 z-score
CTGGCCTGGGGTCTGCAGAGGTGCTAG	-1.3 z-score
TTAGGTTTCGGGGTTCGGTTAGTGCTA	3.28 z-score
TCAGTTTCACTTTCCAAACTGTGCTAG	10.8 z-score
TCACATATACACATCTTACTGTGCTAG	0.931 z-score

Block 2 — technique: RNA Bind-n-Seq; form: RNA; matrix: in vitro; concentration: 100 nM; relative to: input RNA pool; reading: higher = stronger binding
Target: RING finger protein unkempt homolog, zinc fingers 1-6, SBP tag (UNK, Homo sapiens, UniProt Q9C0B0, residues 30-357)
Chain of UniProt Q9C0B0 (30-357, looked up): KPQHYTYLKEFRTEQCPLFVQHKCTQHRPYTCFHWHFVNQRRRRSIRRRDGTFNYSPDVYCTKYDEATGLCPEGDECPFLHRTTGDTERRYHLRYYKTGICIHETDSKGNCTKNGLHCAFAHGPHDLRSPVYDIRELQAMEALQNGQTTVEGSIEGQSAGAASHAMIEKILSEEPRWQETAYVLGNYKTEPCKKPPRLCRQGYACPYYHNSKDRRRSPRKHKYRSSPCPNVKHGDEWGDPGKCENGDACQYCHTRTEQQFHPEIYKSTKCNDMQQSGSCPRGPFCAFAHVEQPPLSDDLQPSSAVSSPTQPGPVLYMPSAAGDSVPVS
Setting: RNA with constant flanks, vertebrate orthologous sites, ends assumed
Constant ends, left off below: GGGAGUUCUACAGUCCGACGAUC … CAACAGAGGAUUGAGCAUCA
Oligonucleotide	bound/input enrichment [ratio]
GCAAAAGGCCAAAUUCCCUCCUCCCUUCUACUGCUUCUACCAACUGGAAGCACAGAAAACUAGAAUUUCAUUUAUUUUAUUUUUUUAAUUGAUUUCUCGUAACAUCCAAUAGGAAUGCUA	3.77
GUUAGGACAUGACCCUUAUCGGUUAGGUCAUGAUGCCUAUAGGUUAGGACAGGACCCGUAUAGAUUAGGCCAUGAUCCCUACAGACUAACUCCUGAUCCCUAUAGAAUGUCACCUAGACC	0.766
CCUACAAUAAUGAAAACUUACAGGAAUUUUUUUAUUUUUCAUUUUCCCCUUAGGCAUACUUAGUCUUUUUUUCCCCCCAGGCAGAUCAUUCUGAGUGUGCGAGUGUGUGCACAUGUUAUA	1.56
GAAGUCCUGGCGGCUUGUAUUACCUCAGUGAGGUAAGGUCUCCUAGCAUUCGACCGGGACCAACCCCUCCAUCCUCAGAAUCUCCACGUGUAAUUUUAUUUCUUUUAUACUUGCUCAUCU	0.216
UGUUACGGUCAUACCAGCCUGUUAACCUCUCGUCUGUGCACAGCUUCAAAUGUUACCGGCUAGUUAGAUUUUUAUUUAAAAUAUGGAAAACUGCUUUUCCCAAGACAUUUAAAAAGAAAC	1.15
UAGCAAGAGAACCAAGCAGUAGUAUUGUGGAUUUUUUUUUUUUGUAAAUGUAAAAAUAAUUAGAUCCAGACUUUGUUUCCUUCUUCAAUUUUAAAAAUAAAAAAUACCUCAGUGCUAUGU	0.364
UUGUUUUUAUUUUUUUUAACUUCCUUAAUUCUUCCUUACUUCCUUUUAUUUUUGUUUUUGGUAGUUAUUGUUACCAUGCCAUUUUACGUCUCCUUCACUGAAGGGCUAGAGUUUUAACUU	2.81
ACAGGAACAGCAUAGGCUGUUUGAGUUUUGGGGAAAUGAGCUUUGCUUUUUAUAUUUAACUAGGAUACUUUUAUAUGAUGGGUGCUUUGAGUGUGAAUGCAGCAGGCUCUCUUGUUUCCG	1.29

Block 3 — technique: RNA Bind-n-Seq; form: RNA; matrix: in vitro; concentration: 1 µM; setting: whole 134-nt RNA, ends assumed; added: 150 mM KCl; relative to: input library; reading: higher = stronger binding
Target: Ras GTPase-activating protein-binding protein 1, RRM domain (G3BP1, Homo sapiens, UniProt Q13283)
Chain of UniProt Q13283 (whole entry, looked up): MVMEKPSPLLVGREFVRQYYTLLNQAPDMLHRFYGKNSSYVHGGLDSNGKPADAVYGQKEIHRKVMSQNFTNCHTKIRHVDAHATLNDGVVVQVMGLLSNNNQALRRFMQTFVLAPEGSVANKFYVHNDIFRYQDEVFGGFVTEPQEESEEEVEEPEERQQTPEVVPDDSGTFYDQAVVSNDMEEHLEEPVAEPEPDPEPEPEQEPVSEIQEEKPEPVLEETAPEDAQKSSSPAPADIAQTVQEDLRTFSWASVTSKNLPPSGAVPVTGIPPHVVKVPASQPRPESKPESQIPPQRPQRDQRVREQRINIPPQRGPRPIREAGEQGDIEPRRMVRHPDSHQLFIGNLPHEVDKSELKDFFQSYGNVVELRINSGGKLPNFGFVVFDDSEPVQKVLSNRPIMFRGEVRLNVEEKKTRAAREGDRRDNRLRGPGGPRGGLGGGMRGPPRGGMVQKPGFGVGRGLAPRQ
Constant ends, left off below: GGGAGUUCUACAGUCCGACGAUC … UGGAAUUCUCGGGUGUCAAGG
Oligonucleotide	log2 enrichment
UCCUGUGCUACACAUCGUAUGUACCGAAUCGGGGUUUUUGGGGUGGGGAAAAAAAGGGGAAAGUAUUAUGUUACGCCGUUCGGAUCUGCA	0.692
ACCAUGCAAAAGGGCAUCUUUGGGAAGUGGGGCAAGGGGGGGAUAGGGAGGGGGGUAACACUUUGGGAACAGGUGGUCCCAGGUCGUUUC	-0.367
CACAGACAACACGGACCCACACAGACACAGAGGGAAGGGGUUGGGAUGGGGACAGGGUGCACAGCAGGGCGGGGUAGGACCCCAGCCCCU	-0.0786
GUCCUGUGCUACACAUCGUAUGUACCGAAUCGGGGAAAGGGGAAAGGGGUUUUUGGGGAAAGUAUUAUGUUACGCCGUUCGGAUCUGCAC	1.45
UGGGAGGUGGAGUUUGUUUAUUUUUUUAGCUCAUUUCCAGGGGUGGGAAUUUUUUUUUAAUAUGUGUCAUGAAUAAAGUUGUUUUUGAAA	1.69
UCCUGUGCUACACAUCGUAUGUACCGAAUCGGGGAAAGGGGAAAAAGGGGUUUUUGGGGAAAGUAUUAUGUUACGCCGUUCGGAUCUGCA	1.1
AAGUCGCGUGUCUAGGUGAGUCGCGGUGGGUCCUCGCUUGCAGUUCAGCGACCACGGUGGGUACCGUUUUUGCGAGGAUUGUUUGUCCCC	-0.42
UAACUUUAGAGGAGGAUCUGAUGGAUAUGGCAGUGGACGUGGAUUUGGGGAUGGCUAUAAUGGGUAUGGGGGAGGACCUGGAGGUGGCAA	-0.415
CCUGUGCUACACAUCGUAUGUACCGAAUCGGGGUUUUUGGGGUUUUUGGGGAAAAAGGGGAAAGUAUUAUGUUACGCCGUUCGGAUCUGC	0.636

Block 4 — technique: universal PBM; form: double-stranded DNA, one strand shown; matrix: in vitro; concentration: not given; reading: higher = stronger binding
Target: Sal-like protein 4, full length isoform B (SALL4, Homo sapiens, UniProt Q9UJQ4-2, residues 1-616)
Setting: 8-mer, flanks averaged, mean of replicates
Oligonucleotide	E-score
AACTCGCG	-0.219
CGCGGCTA	-0.309
CGACTAAG	-0.174
GTAAGCAC	-0.0488
GTACATGA	0.205
CCGACTTA	0.0882
CAAGGCAG	-0.0818
CTAGAGGC	-0.11
AGATCACG	-0.0433
CGGGTGTA	-0.167
GCAGCACA	-0.114
CGGCTATC	-0.176
CATCTACC	-0.0213
CAGTATGG	-0.0229
GCTCGAAC	-0.125
CAAATCCG	-0.0214
GACTTTGC	-0.177
CGGAGCCC	-0.38
CAGATTAA	0.194
ATTCGGTC	-0.127
AGGCGCCG	-0.223
ACGGATAC	0.0944
CACTGCAC	-0.121
GCAAGCAC	-0.0797
AAGCCCCG	-0.236

Block 5 — technique: protein-binding microarray; form: double-stranded DNA, one strand shown; matrix: in vitro; concentration: not given; reading: higher = stronger binding
Target: Myc proto-oncogene protein, bHLH-zipper, MAX partner unstated (MYC, Homo sapiens, UniProt P01106, residues 368-449)
Chain of UniProt P01106 (368-449, looked up): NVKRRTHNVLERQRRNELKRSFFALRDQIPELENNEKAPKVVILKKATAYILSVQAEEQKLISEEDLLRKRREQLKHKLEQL
Setting: k-mer, scored over probes, only values ≥0.25
Oligonucleotide	E-score
AGCACACC	0.336
CATGTGAG	0.422
ACACGTGT	0.496
CGTACCAC	0.296
AAACGTGC	0.395
ACCGTGTG	0.272
AGGGGTGG	0.296
GCGTGACC	0.378
ACCGCCAT	0.301
CATGCACA	0.427
CGTGACAA	0.324
CTGCCCAC	0.272
ACACGAGA	0.336
ACGAGGAA	0.342
ACATGGTA	0.384
ACATGGGG	0.404
ACGTGTAG	0.4

Some of these lines once more (block 5):
Oligonucleotide	E-score
CATGCACA	0.427
CATGTGAG	0.422
AGGGGTGG	0.296
ACGAGGAA	0.342
CGTGACAA	0.324
AGCACACC	0.336
ACCGCCAT	0.301
CGTACCAC	0.296
ACATGGTA	0.384
ACATGGGG	0.404
ACACGAGA	0.336
